Published values gathered from unrelated publications.
A part holds a random share of what one study measured.

Series 1 — method: protein-binding microarray; form: hairpin DNA; medium: in vitro; concentration: not given; baseline: not given; reading: higher = stronger binding; constant ends, left off below: GAGGCCG … CGGCCTCACACTC
Target: Cyclic AMP-responsive element-binding protein 1, full length (CREB1, Homo sapiens, UniProt P16220, residues 1-327)
Chain of UniProt P16220 (whole entry, looked up): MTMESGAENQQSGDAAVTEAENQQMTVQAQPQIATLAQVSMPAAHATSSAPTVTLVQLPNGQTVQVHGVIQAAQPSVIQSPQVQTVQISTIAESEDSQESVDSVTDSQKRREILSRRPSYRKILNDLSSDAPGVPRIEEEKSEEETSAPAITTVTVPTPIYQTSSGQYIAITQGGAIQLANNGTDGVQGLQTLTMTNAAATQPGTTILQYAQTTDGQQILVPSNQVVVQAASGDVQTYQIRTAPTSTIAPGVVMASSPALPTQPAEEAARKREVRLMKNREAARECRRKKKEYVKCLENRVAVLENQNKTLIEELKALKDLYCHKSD
Setting: whole hairpin DNA, median over replicate spots
For `GCTGACGCGAGCCTCCTGGCTCGCGTCAGC`, the median fluorescence was 3790 a.u.
For `GCTCACGTCAGCCTCCTGGCTGACGTGAGC`, the median fluorescence was 4230 a.u.
With `ACCGCGTCGTGCCTCCTGGCACGACGCGGT (5mC at 9 10 15 29 34)` the median fluorescence was 4010 a.u.
With `GATGACGTCGGCCTCCTGGCCGACGTCATC (5mC at 16 28)` the median fluorescence was 10600 a.u.
With `AGGACGTCGTGCCTCCTGGCACGACGTCCT (5mC at 15 29 35)` the median fluorescence was 3130 a.u.
With `GATGTCGTCAGCCTCCTGGCTGACGACATC` the median fluorescence was 4390 a.u.
`CGTGACGTCAGCCTCCTGGCTGACGTCACG` gave a median fluorescence of 24000 a.u.
The median fluorescence of `GATGACGTAAGCCTCCTGGCTTACGTCATC` is reported as 18200 a.u.
`GCTGACGTCAGCCTCCTGGCTGACGTCAGC (5mC at 13)` gave a median fluorescence of 5190 a.u.
`GCTGACGTCCGCCTCCTGGCGGACGTCAGC` has a median fluorescence of 4280 a.u.
`TCGACGTCGTGCCTCCTGGCACGACGTCGA (5mC at 9 15 29 35)` gave a median fluorescence of 3840 a.u.
`GCTCGCGTCAGCCTCCTGGCTGACGCGAGC (5mC at 11 33)` gave a median fluorescence of 4830 a.u.
`GCTGACGCCAGCCTCCTGGCTGGCGTCAGC` gave a median fluorescence of 3350 a.u.
`GATGCGGTCAGCCTCCTGGCTGACCGCATC (5mC at 12)` gave a median fluorescence of 2910 a.u.
With `GCCGACGTCAGCCTCCTGGCTGACGTCGGC (5mC at 34)` the median fluorescence was 4100 a.u.
For `GCTGACGACAGCCTCCTGGCTGTCGTCAGC`, the median fluorescence was 3860 a.u.
`GCTGACTTCAGCCTCCTGGCTGAAGTCAGC` has a median fluorescence of 2450 a.u.
With `ACGACGTCATGCCTCCTGGCATGACGTCGT (5mC at 9 15 35)` the median fluorescence was 4430 a.u.
With `CGTGACGTCAGCCTCCTGGCTGACGTCACG (5mC at 8 36)` the median fluorescence was 21400 a.u.
For `GCTGACCTCAGCCTCCTGGCTGAGGTCAGC`, the median fluorescence was 2610 a.u.
With `TCTGACGTCAGCCTCCTGGCTGACGTCAGA` the median fluorescence was 12600 a.u.
`GCTGACGTCGGCCTCCTGGCCGACGTCAGC (5mC at 28)` has a median fluorescence of 7470 a.u.
`GATGCGGTCAGCCTCCTGGCTGACCGCATC` gave a median fluorescence of 2820 a.u.
For `GGTGACGTCAGCCTCCTGGCTGACGTCACC (5mC at 36)`, the median fluorescence was 21400 a.u.
`GCTGACGTTAGCCTCCTGGCTAACGTCAGC` gave a median fluorescence of 4400 a.u.

Series 2 — method: aptamer microarray, sandwich; form: DNA with 2'F-ANA; medium: in vitro; concentration: 200 nM; added: Cy3 exosite-II aptamer, 400 nM; reading: higher = stronger binding; sequence: GGTTGGTGTGGTTGG
Target: Prothrombin, mature alpha-thrombin (F2, Homo sapiens, UniProt P00734)
Setting: whole 15-mer aptamer, many near background
Under “mean fluorescence intensity”, `2'F-ANA at 3 4 6 10 11 12 14 15` is recorded as 186 a.u.
Under “mean fluorescence intensity”, `2'F-ANA at 2 5 8 14 15` is recorded as 44.9 a.u.
`2'F-ANA at 2 5 6 7 10 11 12 14 15`: “mean fluorescence intensity” 47.5 a.u.
Under “mean fluorescence intensity”, `2'F-ANA at 2 3 4 5 7 8 9 12 15` is recorded as 191 a.u.
`2'F-ANA at 3 4 5 6 9 11 12 13 15` — result for “mean fluorescence intensity”: 92.8 a.u.
Under “mean fluorescence intensity”, `2'F-ANA at 1 2 3 5 6 7 8 9 11 12 15` is recorded as 98.5 a.u.
`2'F-ANA at 4 6 7 9 11 12 13 14 15` — result for “mean fluorescence intensity”: 85.1 a.u.
For `2'F-ANA at 2 5 7 8 12 15`, “mean fluorescence intensity” read 225 a.u.
For `2'F-ANA at 4 6 8 10 13 15`, “mean fluorescence intensity” read 66.2 a.u.
`2'F-ANA at 1 2 5 6 7 8 9 10 12 13` — result for “mean fluorescence intensity”: 53.5 a.u.
`2'F-ANA at 2 5 7 9 10 11 12 13 15` — result for “mean fluorescence intensity”: 47.6 a.u.
`2'F-ANA at 2 3 4 5 7 8 14 15`: “mean fluorescence intensity” 53.9 a.u.
`2'F-ANA at 3 4 6 7 8 13 14`: “mean fluorescence intensity” 317 a.u.
For `2'F-ANA at 3 4 7 8 11 12 13 14`, “mean fluorescence intensity” read 435 a.u.
Under “mean fluorescence intensity”, `2'F-ANA at 1 2 6 7 9 12 13 14 15` is recorded as 60.9 a.u.
`2'F-ANA at 7 10` — result for “mean fluorescence intensity”: 246 a.u.
Under “mean fluorescence intensity”, `2'F-ANA at 3 5 7 10 12 13 14` is recorded as 50.9 a.u.
`2'F-ANA at 1 2 8 10 11 12`: “mean fluorescence intensity” 60.7 a.u.
Under “mean fluorescence intensity”, `2'F-ANA at 1 3 4 5 6 8 9 11 12 13` is recorded as 69.6 a.u.
`2'F-ANA at 1 4 5 6 7 8 9 11 14 15` — result for “mean fluorescence intensity”: 55.2 a.u.
`2'F-ANA at 3 4 5 6 7 11 13 14 15` — result for “mean fluorescence intensity”: 52.2 a.u.
Under “mean fluorescence intensity”, `2'F-ANA at 1 2 3 4 5 6 7 8 9 10 14` is recorded as 48.6 a.u.
`2'F-ANA at 2 3 4 6 7 8 13`: “mean fluorescence intensity” 461 a.u.
For `2'F-ANA at 2 4 7 11 12 13 15`, “mean fluorescence intensity” read 332 a.u.
For `2'F-ANA at 2 5 6 13 15`, “mean fluorescence intensity” read 58.9 a.u.

Series 3 — method: protein binding microarray; form: double-stranded DNA, one strand shown; medium: in vitro; concentration: not given; baseline: not given; reading: higher = stronger binding
Target: Histone acetyltransferase KAT6A, winged helix 2, GST fusion (KAT6A, Homo sapiens, UniProt Q92794, residues 85-181)
Setting: 8-mer, flanks averaged, mean of 2 arrays, mostly near background
Target sequence (chain): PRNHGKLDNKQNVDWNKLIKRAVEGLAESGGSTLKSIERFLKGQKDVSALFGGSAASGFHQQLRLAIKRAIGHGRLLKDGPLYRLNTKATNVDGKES
With `GCCCGAGA` the E-score was 0.244.
`CGCGGGCA` has an E-score of 0.254.
The E-score of `AGGACTCG` is reported as -0.0549.
With `CACGGGGC` the E-score was 0.0461.
`CGTCGAGA` has an E-score of 0.0612.
`GAAATCTC` has an E-score of -0.0285.
The E-score of `CTCTTCTC` is reported as -0.0462.
The E-score of `AACTCCGC` is reported as -0.0586.
With `TAAGTCCA` the E-score was -0.0377.
`CGCCAATA` gave an E-score of 0.0465.
`CAGCGGCG` has an E-score of 0.295.
For `CCTTTTTA`, the E-score was -0.0089.
The E-score of `AGGCGTCG` is reported as 0.0856.
`CCTGGAGA` has an E-score of 0.13.
The E-score of `AGGACAGA` is reported as 0.072.
The E-score of `CTCATGAA` is reported as 0.0005.

Series 4 — organism: Saccharomyces cerevisiae; read-out: binding; method: yeast competitive growth sequencing; form: peptide; strain: cyclin D1-Cln2 strain; medium: peptide tiling library; setting: pooled screen; reading: direction not given
For `VKRLNFRSEEME`, the enrichment score was -2.01.
For `AEHPKPSACRNLFGPV`, the enrichment score was 0.675.
The enrichment score of `HPESPPRKRLKSKGSD` is reported as 4.25.
For `EHCRVLFLDHVMYTIH`, the enrichment score was -0.784.
For `QNPCGSKACRRLFGPV`, the enrichment score was 0.268.
`KVRRNLFNQELLSP` has an enrichment score of -0.911.
`YLYLLLTQSLWCRV` has an enrichment score of -1.81.
`RQVRRDLFAF` gave an enrichment score of -2.04.
`SPPRGRRLFPPGPAGF` has an enrichment score of 0.0631.
`NEGVSNAVRRSLYIRD` gave an enrichment score of -1.22.
`QYQVVDDIVSKLVFDF` gave an enrichment score of 0.555.
`SNFFDVIKQLFSDEKN` has an enrichment score of -2.91.
For `GTPKRCLDLSNLSSGE`, the enrichment score was -0.374.
`RTEALEQGGLPKKLIF` gave an enrichment score of 0.801.
With `EPRNLLSLFEDTLDPT` the enrichment score was 0.554.
The enrichment score of `AKRSLGFLPQPVPL` is reported as -1.29.

Series 5 — method: RNA Bind-n-Seq; form: RNA; medium: in vitro; concentration: not given; baseline: input RNA pool; reading: higher = stronger binding
Target: RING finger protein unkempt homolog, zinc fingers 1-6, GST-SBP tag (UNK, Homo sapiens, UniProt Q9C0B0, residues 30-357)
Setting: RNA with constant flanks, human and mouse sites, ends assumed
Construct (chain): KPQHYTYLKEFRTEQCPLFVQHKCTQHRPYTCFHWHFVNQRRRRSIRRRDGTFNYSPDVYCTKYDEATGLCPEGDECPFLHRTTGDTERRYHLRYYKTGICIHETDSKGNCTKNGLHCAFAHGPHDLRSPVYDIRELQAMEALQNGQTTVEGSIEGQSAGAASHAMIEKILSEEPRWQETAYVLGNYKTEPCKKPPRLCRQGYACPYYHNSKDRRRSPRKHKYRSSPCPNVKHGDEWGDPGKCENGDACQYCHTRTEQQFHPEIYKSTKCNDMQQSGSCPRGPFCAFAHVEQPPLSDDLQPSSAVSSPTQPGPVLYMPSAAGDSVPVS
For `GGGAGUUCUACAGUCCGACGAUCAAAGCAAUAAAUGUAGAUCUUCAAAGUGAUGCUGCUCUGCAGGUGGACAUUUCUGAUGCUCUUAGUGAGCGGGAUAAAGUAAAAUUCACUGUUCACACAAAGAGUUCAUUGCCAAAUUUUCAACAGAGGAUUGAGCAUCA`, the bound/input enrichment was 0.216 ratio.
`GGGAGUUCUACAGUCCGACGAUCUACAGACGUUCUAGAAGCCGAAGUUAUGAAAGGAGGAGAUCAAGAAGUCGGUCUUUUGAUUACAACUAUAGAAGAUCGUAUAGUCCUAGAAACAGUAGACCGACUGGAAGACCACGGCGUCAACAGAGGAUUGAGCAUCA` gave a bound/input enrichment of 0.578 ratio.
`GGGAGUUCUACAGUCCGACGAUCGGACCCGAUCACGCGUCAGGUGGGACAGCACAUUGAGAUGGAGCCAGAGUGGGAAGCAGCCUUCACACUGCAGAUGAAGCUGACACACGUCAUCUCAAUGGUGCAGGACUGGUGUGCUCUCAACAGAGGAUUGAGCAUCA` gave a bound/input enrichment of 0.0562 ratio.
For `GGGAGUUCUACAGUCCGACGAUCCUGAUCAUCAAUGGUCCCAUAAAGUCAUUCUGCUACCGCCGGCUGCAGUACCUGAGCUCCAAAUUCCAGAUGCACGUUUUGCUCAAUGAGAUGAAGGAGCUCGCUGCUCAGAAGAAAGUGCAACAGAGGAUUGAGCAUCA`, the bound/input enrichment was 0.0929 ratio.
`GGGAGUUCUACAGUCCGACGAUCGAUGUAGAAAAAUUUUGUAACAGUGUAGUCGAUCUGUAUUCAAAUCUUAGUAAGCCAUUUUUAGACAUAGUUUUGUAUAUCUUUAAGUUAACGAGUGCAAUUGGAGCUCAGGGCCCAGCGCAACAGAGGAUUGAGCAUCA` has a bound/input enrichment of 49.1 ratio.
With `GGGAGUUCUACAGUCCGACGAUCAAAUAUGGCCCCAUUGCUGAUGUGUCUAUUGUAUAUGACCAGCAAUCUAGACGUUCAAGAGGAUUUGCCUUUGUAUAUUUUGAAAAUGUAGACGAUGCCAAGGAAGCUAAAGAACGUGCCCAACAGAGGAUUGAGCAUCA` the bound/input enrichment was 0.74 ratio.
`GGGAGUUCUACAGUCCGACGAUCAUGGAUCCUCCAUCAAAGAAUUGUCUUUCUUUUAAUGUCAUUAGUCACCAAGGUUGCAUAAUUAGCAACCUUGUAGUAGCCUGUAGCACAGUGGGAUCUGCAUAUCUUCCGUCUAGUUACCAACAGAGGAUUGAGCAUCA` has a bound/input enrichment of 2.82 ratio.
The bound/input enrichment of `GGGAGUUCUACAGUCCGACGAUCUGCGUCACAUGGGAAAUAAAUCCUGAGGCCAGGAUCACCAGUGGGGUAGAGUCAUCUUCAUAGUCUCCUGUUAUCCUCCCCCUGAACAAAGAACAAAGUGAGACUGGGAAGCUAGUGUUGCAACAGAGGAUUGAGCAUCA` is reported as 0.233 ratio.
`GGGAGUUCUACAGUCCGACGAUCCUGGACUUCCACCGCUGUGAGAAGGCAAUGACGGCCAAGGGGGGUGAUGUCUCCGUGUGUGAGUGGUACCGGCGUGUGUACAAGUCCCUCUGUCCCGUGUCAUGGGUCUCAGCCUGGGAUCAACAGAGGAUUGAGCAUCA` has a bound/input enrichment of 0.173 ratio.
`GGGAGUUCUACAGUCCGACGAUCCGAUAUCUGCCUUGGCUCUACCAUCCUCCCUCUGCAAUGCAGCAAGGACCUAAAGAAUUCAUCGAGUGUGUCUCCCACAUCCGGUUGCUGUCCUGGCUGCUUCUGGGAUCCCUCACGCAUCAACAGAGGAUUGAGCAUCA` gave a bound/input enrichment of 0.3 ratio.
`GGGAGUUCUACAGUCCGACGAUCAAGCACAAUGAACUGAAACCGUACAAAUGCCAGCUCUGCUACUAUGAGACCAAGCACACGGAGGAACUGGACACUCACCUUCGGGAUGAGCACAAGGUGAGCCGGAACUUUGAGCUGGUUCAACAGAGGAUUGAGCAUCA` has a bound/input enrichment of 0.0869 ratio.
